Results gathered from unrelated publications.
Protocols differ between the studies behind these lines. ± marks the error that the study gave.

CS(=O)(=O)n1cc2c(n1)CN([C@H]1CO[C@H](c3cc(F)ccc3F)[C@@H](N)C1)C2
concentration at 168 h (healthy male human, plasma; oral, 50 mg once weekly, day 15, fasted, geometric mean): 32.8 nM

CCCCCCCC/C=C\CCCCCCCC(=O)O[C@H](COC(=O)CCCCCCCCCCCCCCC)COP(=O)([O-])OCC[N+](C)(C)C
particle size (dynamic light scattering; lipid vesicles; 1.0 mg/mL, 25 °C, 1:1 wt/wt, 24 h at 37 °C): 10.4 nm

CCCOc1ccc([C@H]2CNC(=O)N2c2ccc3[nH]cnc3c2)cc1
terminal half-life (non-elderly adults, fasted, plasma; oral, 50 mg twice daily, day 11, oral solution, geometric mean): 2.73 h

CCC[C@@]1(CCc2ccccc2)CC(O)=C([C@H](CC)c2cccc(NS(=O)(=O)c3ccc(C(F)(F)F)cn3)c2)C(=O)O1
AUC(0-inf) (male Sprague-Dawley rat, plasma; intravenous, 1 mg/kg): 4870 ng·h/mL

Nc1ccn([C@@H]2O[C@H](CO)[C@@H](O)C2(F)F)c(=O)n1
measured concentration (THU-treated rat plasma; 3200.00 ng/mL, -80 to 20 °C, three freeze-thaw cycles, high QC): 2970 ± 150 ng/mL

CC(C)(Sc1ccncc1-c1ccc(C#N)c2ccccc12)C(=O)O
Ae(0-24) ratio (human, male, urine; oral, 10 mg, with: allopurinol 300 mg; relative to: combination over alone): 101%

CS/C(S)=N/CCCC[S+](C)[O-] (racemic)
mRNA fold change (RT-PCR, refers to: Cyp19a1; rat, colon; oral gavage, 200 mg/kg, dosed for four days; relative to: vehicle): 1.23

CCOc1ccc(NC(=S)N(CCO)Cc2cc3cc(C)cc(C)c3[nH]c2=O)cc1
AUC(0-24 h) (C57BL/6J mouse, plasma; oral, 3 mg/kg, with: ABT 50 mg/kg oral pretreatment 2 h before): 4340 ng·h/mL

COc1ccc(-c2oc3c(OC)c(OC)c(OC)c(O)c3c(=O)c2OC)cc1OC
tissue to peel content ratio (C57BL/6 mouse, male, small intestine; oral, 1% w/w in diet, 6 weeks, orange peel extract diet; relative to: content in orange peel): 1.95%

NC(=O)OCC(COC(N)=O)c1ccccc1
hepatocyte necrosis score (Sprague-Dawley rat, male, liver; oral, 300 mg/kg, 24 h, single low dose; direction not given): 0

C[C@]12CC[C@@H]3c4ccc(O)cc4CC[C@H]3[C@@H]1C[C@@H](O)[C@@H]2O
maximum serum concentration (GC-MS; breast cancer women on NSAI, serum; vaginal, 0.03 mg daily, 3 h, day 28): 0.0292 ng/mL

CNCc1ccc(-c2[nH]c3cc(F)cc4c3c2CCNC4=O)cc1
volume of distribution (human cancer patients, plasma; intravenous, 18 mg/m2, day 1, with: temozolomide 200): 378 L

O=C(c1ccc(F)c(F)c1Nc1ccc(I)cc1F)N1CC(O)([C@@H]2CCCCN2)C1
AUC(0-24) at steady state (human, dose escalation, plasma; oral, 1.0 mg/kg, geometric mean): 2560 ng·h/mL

CC[C@H](C)[C@H](NC(C)=O)C(=O)N[C@@]1(C)CCCC=CCCC[C@@](C)(C(=O)N[C@@H](CC(C)C)C(=O)N[C@@H](CCCCN)C(=O)N[C@H](C(N)=O)[C@@H](C)O)NC(=O)[C@H](CC(N)=O)NC(=O)[C@H]([C@@H](C)O)NC(=O)[C@H](CC(C)C)NC1=O
α-helicity (circular dichroism; PBS with 50% trifluoroethanol; 0.3 mg/mL, pH 7.4, 25 °C): 22.1%

COC(=O)N[C@H](C(=O)N[C@@H](Cc1ccccc1)[C@@H](O)CN(Cc1ccc(-c2ccccn2)cc1)NC(=O)[C@@H](NC(=O)OC)C(C)(C)C)C(C)(C)C
free drug permeability (modified PAMPA Franz cell; phosphate buffer with HPMCAS; stock 20 mg/mL, 3 h, 37 °C, 460 nm system, 300 rpm, with: 3% BSA receiver): 51.7 ± 8.1 ×10⁻⁶ cm/s

CC(=O)c1ccc([C@H]2C[C@@]3(C)[C@@H](CC[C@@]3(O)C(F)(F)C(F)(F)F)[C@@H]3CCC4=CC(=O)CCC4=C32)cc1
maximal oral bioavailability (rat liver microsomes; 100 % absorption assumed): 83%

CCCC[C@H](NC(C)=O)C(=O)N[C@H]1CCC(=O)NC[C@@H](C(=O)N[C@@H](Cc2c[nH]c3ccccc23)C(N)=O)NC(=O)[C@H](CCCNC(=N)N)NC(=O)[C@@H](Cc2ccccc2)NC(=O)[C@H](Cc2c[nH]cn2)NC1=O
Tmax (female rat, plasma; subcutaneous, 5 mg/kg/day, multiple doses, once daily): 0.25 h

CC[C@H](C)[C@@H]1NC(=O)[C@H](CCCNC(=N)N)NC(=O)[C@H](CC(=O)O)NC(=O)[C@H](CC(C)C)NC(=O)[C@H](CCCCN)NC(=O)[C@H](CC(C)C)NC(=O)CNC(=O)[C@H](Cc2ccccc2)NC(=O)[C@@H](NC(=O)CNC(=O)[C@H](CCCCN)NC(=O)[C@H](CO)NC(=O)[C@H](CC(C)C)NC(=O)CNC(=O)[C@H](CCCCN)NC(=O)[C@H](CCCCN)NC(=O)[C@H](CC(N)=O)NC(=O)[C@H](C)NC(=O)CNC(=O)[C@H](CCCCN)NC(=O)[C@H](Cc2ccc(O)cc2)NC(=O)[C@H](CCCCN)NC(=O)[C@H](CCCNC(=N)N)NC(=O)[C@H](C)NC(=O)[C@H](CC(N)=O)NC(=O)[C@@H]2CCCN2C(=O)[C@H](Cc2c[nH]cn2)NC(=O)[C@H](CCC(=O)O)NC(=O)[C@H](CCC(N)=O)NC(=O)CNC(=O)[C@@H]2CCCN2)CSSC[C@@H](C(=O)O)NC(=O)CNC(=O)[C@H](CC(C)C)NC(=O)CNC(=O)[C@H](CO)NC(=O)[C@H](CCSC)NC(=O)[C@H](CO)NC(=O)CNC1=O
isoaspartate formation half-life (100 µM, pH 7.4 or 7.7, 37 °C): ~120 h

O=C(c1cc(Cl)c(O)c(Cl)c1)N1CS(=O)(=O)c2ccccc21
AUC(0-24h) (healthy Chinese adults, fasted, plasma; oral, 4 mg single dose, day 1): 3950 ± 415 ng·h/mL

CN1CC[C@@H](NC(=O)Nc2ccc(C#N)cc2)C[C@@H]1c1nc2ccccc2[nH]1
unbound fraction (equilibrium dialysis; human, normal hepatic function, plasma; 6 h after dose, arithmetic mean): 0.08 ± 0.01

CC(C)C[C@H](NC(=O)[C@H](CCCNC(=N)N)NC(=S)Nc1ccc(C[C@H]2CN(CC(=O)O)CCN(CC(=O)O)CCN2CC(=O)O)cc1)C(=O)N[C@@H](CC(N)=O)C(=O)N[C@H](C(=O)NCC(=O)NCC(=O)N[C@H](C(=O)N[C@@H](Cc1ccc(O)cc1)C(=O)N[C@@H](Cc1ccccc1)C(=O)N[C@@H](CC(C)C)C(=O)N[C@H](C(=O)N[C@H](C(=O)N[C@@H](CCCNC(=N)N)C(=O)N[C@@H](CCC(N)=O)C(=O)O)[C@@H](C)O)[C@@H](C)O)[C@@H](C)O)C(C)C
HPLC retention time (reverse-phase HPLC): 14.5 min

C#C[C@]1(CO)O[C@@H](n2cnc3c(N)nc(F)nc32)C[C@@H]1O
AUC(0-inf) (human, plasma; oral, 15 mg, single dose, fasted): 1.58 µM·h

O=C(O)/C=C/c1ccccc1
measured concentration (rat plasma QC sample; 1024 ng/mL nominal, 24 h, high QC level autosampler stability): 1010 ± 62.9 ng/mL

CC[C@@H](C)[C@@H]1NC(=O)[C@H]([C@@H](C)CC)NC(=O)[C@@H](Cc2c[nH]c3ccccc23)NC(=O)CCSCC[C@@H](C(=O)N(C)[C@H](CO)CCCN)NC(=O)[C@H](CC(N)=O)NC1=O
placental transfer (New Zealand white rabbit, pregnant, fetal blood and plasma; iv bolus, 3.01 mg/kg daily for 7 days; relative to: maternal maximum): ~5%

COc1cc(/C=C/C(=O)CC(=O)/C=C/c2ccc(O)c(OC)c2)ccc1O
brain uptake ratio (I-125 label; C57BL/6J mouse, olfactory lobes; intranasal vs intraperitoneal, 10 µg/mouse IN, 100 µg/mouse IP, 8 h; relative to: intranasal over intraperitoneal): 4.68

CC(C)C[C@@H]1NC(=O)[C@H](C)N(C)C(=O)[C@H](Cc2ccccc2)NCc2ccc([nH]2)CNC1=O
Papp (PAMPA; 100 µM, 17 h, pH 6.4): 9.77 ×10⁻⁶ cm/s

CC(C)=CCC[C@](C)(O[C@@H]1O[C@H](CO)[C@@H](O)[C@H](O)[C@H]1O)[C@H]1CC[C@]2(C)[C@@H]1[C@H](O)C[C@@H]1[C@@]3(C)CC[C@H](O)C(C)(C)[C@@H]3[C@@H](O[C@@H]3O[C@H](CO)[C@@H](O)[C@H](O)[C@H]3O[C@@H]3O[C@@H](C)[C@H](O)[C@@H](O)[C@H]3O)C[C@]12C
post-preparative stability accuracy (rat, extracted tissue homogenate QC samples; 0.2 µg/mL, 24 h, 15 °C, autosampler): 92.9 ± 3.5%

CC[C@H](C)[C@@H]1NC(=O)[C@H](Cc2ccc(O)cc2)NC(=O)[C@@H](N)CSSC[C@@H](C(=O)N2CCC[C@H]2C(=O)N[C@@H](CC(C)C)C(=O)NCC(N)=O)NC(=O)[C@H](CC(N)=O)NC(=O)[C@H](CCC(N)=O)NC1=O
AUC above baseline (microdialysis, radioimmunoassay; knock-out male mice lacking compound, hippocampus extracellular fluid; intraperitoneal, 12 µg total, incremental area over baseline): 86.7 ± 38.8 pg·30 min/sample

COc1cc(OC)c(/C=C/S(=O)(=O)Cc2ccc(OC)c(NCC(=O)O)c2)c(OC)c1
Vss/F (cancer patients, phase I, plasma; oral, 70 mg twice daily, day 1 cycle 1): 439 ± 513 L

CCN(CC)CCNC(=O)c1c(C)[nH]c(/C=C2\C(=O)Nc3ccc(F)cc32)c1C
maximum trough plasma concentration (human, plasma; oral, 15 mg/m2, day 28): 69.7 ng/mL

NC1(c2ccc(-c3nc4ccn5c(=O)[nH]nc5c4cc3-c3ccccc3)cc2)CCC1
dalotuzumab trough serum concentration (ELISA; human, serum; dose not given): no effect

COc1cc(CCC(C)=O)ccc1O
Tmax (obese male C57BL/6J mice, brain; oral, 200 mg/kg): 0.833 ± 0.167 h

Cc1nc2cccc(OCC(C)(C)C(=O)NC(C)C)c2c(N)c1C(=O)O
AUC(0-t) (female Sprague-Dawley rat, plasma; oral, 10 mg/kg, single dose): 49.2 ng·h/mL

CC(C)NC[C@@H](C(=O)N1CCN(c2ncnc3c2[C@H](C)C[C@H]3O)CC1)c1ccc(Cl)cc1
AUC(0-72) (human, hepatic impairment Mild (Child-Pugh), plasma; oral, 100 mg single, geometric mean): 261 ng·h/mL

OC[C@H]1O[C@@H](c2ccc(F)c(Cc3cc4ccccc4s3)c2)[C@H](O)[C@@H](O)[C@@H]1O
tissue/plasma ratio (Wistar rat, male, kidney; oral, dose not given, 8 h; relative to: kidney over plasma concentration): 1090 ± 456

CC(=O)O[C@@]12CO[C@@H]1C[C@H](O)[C@@]1(C)C(=O)[C@H](O)C3=C(C)[C@@H](OC(=O)[C@H](O)[C@@H](NC(=O)OC(C)(C)C)c4ccccc4)C[C@@](O)([C@@H](OC(=O)c4ccccc4)[C@H]21)C3(C)C
AUC(0-inf) (male Sprague-Dawley rat, plasma; intravenous, 10 mg/kg): 2640 ng·h/mL

CN1CCN(C(=O)[C@@H](N)CSSC[C@H](N)C(=O)N2CCN(C)CC2)CC1.Cl.Cl.Cl.Cl
urine concentration (Slc3a1 knockout male mice, urine; oral gavage, 29.3 µmol/kg daily, 1 week dosing, 4 h after last dose): 7.59 ± 1.34 µM

CC(C)=CCC[C@](C)(O[C@@H]1O[C@H](CO)[C@@H](O)[C@H](O)[C@H]1O)[C@H]1CC[C@]2(C)[C@@H]1[C@H](O)C[C@@H]1[C@@]3(C)CC[C@H](O)C(C)(C)[C@@H]3[C@@H](O[C@@H]3O[C@H](CO)[C@@H](O)[C@H](O)[C@H]3O)C[C@]12C
post-preparative stability accuracy (rat, extracted plasma QC samples; 1.0 µg/mL, 24 h, 15 °C, autosampler): 105 ± 6.2%

COC(=O)C[C@](O)(CCCC(C)(C)O)C(=O)O[C@@H]1C(OC)=C[C@]23CCCN2CCc2cc4c(cc2[C@H]13)OCO4
tissue concentration (CD1 mouse, brain; oral, 1 mg/kg, 0.5 h, below quantification limit 1.00 ng/mL): not detected

COc1cccc(N2CCN(C3=Nc4c(F)cccc4[C@H](CC(=O)O)N3c3cc(C(F)(F)F)ccc3OC)CC2)c1
terminal half-life (healthy women, plasma; intravenous, 240 mg once daily, day 14, mean excluding one outlier subject): 18 h

CC(C)C[C@H](NC(=O)[C@H](CC(C)C)NC(=O)[C@@H](Cc1c[nH]c2ccccc12)NC(=O)[C@@H](NC(=O)[C@@H](Cc1csc2ccccc12)NC(=O)[C@@H](N)CCCCN)[C@H](c1ccccc1)c1c[nH]c2ccccc12)C(N)=O
HPLC retention (RP-HPLC Jupiter Proteo; acetonitrile/water TFA gradient): 61 %B

[2H]C([2H])([2H])Oc1cc2c(cc1OC([2H])([2H])[2H])C1CC(=O)C(CC(C)C)CN1CC2 (stereo not shown)
dose-normalized AUC(0-t) (refers to: deuterated total (α+β)-HTBZ; healthy human volunteers, plasma; oral, 24 mg single dose, standard meal): 22.3 ng·h/mL

Cn1c(-c2ccc(C(N)=O)cc2F)nnc1C(C)(C)Oc1c(F)cc(Cl)cc1F
AUC(0-inf) median (young Japanese subjects, plasma; oral, 50 mg single dose, day 1): 8010 ng·h/mL

Excerpt of the above:
COc1cc(OC)c(/C=C/S(=O)(=O)Cc2ccc(OC)c(NCC(=O)O)c2)c(OC)c1
Vss/F (cancer patients, phase I, plasma; oral, 70 mg twice daily, day 1 cycle 1): 439 ± 513 L

CCN(CC)CCNC(=O)c1c(C)[nH]c(/C=C2\C(=O)Nc3ccc(F)cc32)c1C
maximum trough plasma concentration (human, plasma; oral, 15 mg/m2, day 28): 69.7 ng/mL

NC1(c2ccc(-c3nc4ccn5c(=O)[nH]nc5c4cc3-c3ccccc3)cc2)CCC1
dalotuzumab trough serum concentration (ELISA; human, serum; dose not given): no effect
